Measured values from different studies.
Parts stem from different laboratories: compare values within a part only. Changes are numbered by the printed parent chain.

Set 1
Target: Histone acetyltransferase KAT6A, winged helix 1, GST fusion (KAT6A, Homo sapiens, UniProt Q92794, residues 1-85)
Technique: protein binding microarray
Molecule type: double-stranded DNA, one strand shown
Medium: in vitro
Tested at: not given
Notes: 8-mer, flanks averaged, mean of 2 arrays, mostly near background
Reference: not given
Reading: higher = stronger binding
Quantity: E-score
Target sequence (chain): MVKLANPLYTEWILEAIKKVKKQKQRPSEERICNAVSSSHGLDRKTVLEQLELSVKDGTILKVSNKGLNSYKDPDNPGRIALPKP
CGAACCCG: 0.358
ATAGTTAG: -0.026
GAGCGGAA: 0.179
CGGACACA: 0.143
CCATGACA: -0.16
GATGAGTA: -0.282
ACAGATCG: 0.00428
CCCATAGA: -0.338
AGACCCCT: -0.239
TAAGAATA: -0.0217
GACAGACA: 0.0745
AAGCCCCT: 0.0386
CCCGATCC: -0.0338
ACGTTTCC: 0.0155
CGTAGTAG: 0.0894
GCTCAGTA: -0.0993
CTCCCTCA: -0.168
CAGTACGA: -0.079
ATCGCATG: -0.017
GCTAATGA: -0.0521

Set 2
Target: Prothrombin, mature alpha-thrombin (F2, Homo sapiens, UniProt P00734)
Technique: aptamer microarray, sandwich
Molecule type: DNA with 2'F-ANA
Medium: in vitro
Tested at: 200 nM
Notes: whole 15-mer aptamer, many near background
Added: Cy3 exosite-II aptamer, 400 nM
Reading: higher = stronger binding
Quantity: mean fluorescence intensity
Oligonucleotide: GGTTGGTGTGGTTGG
2'F-ANA at 5 7 11 12: 144 a.u.
2'F-ANA at 1 4 6 7 9 12 14: 55.1 a.u.
2'F-ANA at 1 2 3 7 8 9 10 15: 75.1 a.u.
2'F-ANA at 2 3 4 5 7 12 13 14: 52 a.u.
2'F-ANA at 1 2 5 8 9 10 11 15: 51.2 a.u.
2'F-ANA at 1 5 7 10 11 13: 46.2 a.u.
2'F-ANA at 2 3 5 6 9 13 14: 53.9 a.u.
2'F-ANA at 1 2 3 4 5 7 8 9 12 14: 58.9 a.u.
2'F-ANA at 1 2 3 5 7 11 13 14: 63.4 a.u.
2'F-ANA at 2 9 11 14 15: 120 a.u.
2'F-ANA at 4 5 7 8 9 10 13 14 15: 46.3 a.u.
2'F-ANA at 2 3 4 8 9 10 13 15: 213 a.u.
2'F-ANA at 4 5 6 7 8 14: 51.7 a.u.
2'F-ANA at 1 3 4 8 12: 486 a.u.
2'F-ANA at 1 3 4 5 6 7 11 12 15: 88.8 a.u.
2'F-ANA at 1 4 5 8 11 13 15: 48.8 a.u.
2'F-ANA at 2 3 4 5 8: 123 a.u.
2'F-ANA at 1 3 4 7 9 10 13 15: 59 a.u.

Set 3
Target: RNA binding protein fox-1 homolog 2, RRM domain, GST-SBP tag (RBFOX2, Homo sapiens, UniProt O43251-10, residues 100-194)
Technique: RNA Bind-n-Seq
Molecule type: RNA
Medium: in vitro
Tested at: 365 nM
Notes: natural RNA segment, single round, ends assumed
Reference: no-protein control
Reading: higher = stronger binding
Quantity: RBNS enrichment (R)
All sequences stand within: GGGAGUUCUACAGUCCGACGAUC … UGGAAUUCUCGGGUGCCAA
Construct (chain): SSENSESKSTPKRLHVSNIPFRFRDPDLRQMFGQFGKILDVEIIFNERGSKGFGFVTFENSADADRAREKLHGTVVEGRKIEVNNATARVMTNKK
GCUGUUUCUAAGUGCUGAGAGUUUUGCUUGAAGAGGGAGCGAGCCAUCAAGUUCCCAGCUUUUCAGGAAUGAAAGAAGUUCAGCAGUCAGAUAAUCCUUGUGUCUUGGGU: 0.696
CCCGUGAAUUAUAUGGCCUGACAAUAUGAAUUAGGUGUACUGUACUGAAGAACAGUACUCCACAAACAUGGGUGGUAACAAGAGUUCCAUCCCAGGAGGCCAAACGGUGC: 0.417
GUUAGAAUAUUUUCUGGCCUUCUAUGGGGUAGCAACCCAGAAUCAAUCUGAAUUAGUCCUGUUUUGGUGGAGUUUGUACAUUUUAAAUCCUAUAACAAAAAUAAUCUAGU: 0.427
GGCAACUUUGGGAAUUCUGGGAUCCCACUGUCUUGACAGGUUCCUAGACCGGAGCGCAUGCUGGCUAUUACUGAACACGGCCAUACUUGAGAAACAAAGUCUACUGUGUA: 3.33
CUUGAAAUUGGGGUUUGCUUUAGAGCACAAACAUAAGUCUGUGUUAGGUGGACUUAAAUCCCAACAGGGUCACUUGAUAAUUAUAGCCAUAGAAAUGCAGAUGCAGGUAA: 0.393
GUGCUUGCCUUCUCUCCAAGGCCAUGGCAUGAGUUCACAGAAUAUAUAUUUUCGGCAGAUUGAGCUUUAGAGAUGCAACGACUUUUCCCUCUGUGCCUGUAGGAAUGCUC: 0.601
AGAGCCAUUAUGGUGAGGUACACCUUUAAUCAUAGCACUCAGGAAGCAGGGGCAGGUGAGCCACCAUGGACUGCAUAGCAAGCCAGCCUUGAAUAUAGUGAGUCCAGUCU: 0.322
GAAAGAUUCUAGAUAAGUCAGCAUUGUUUAAAUCCAAGUGCAGUGCAAGUCUGUGAACUGAUCUGUUGCACUGUCUUAUGGCUUCUUAUUCUUCAUCAUAGCUAAUUAAA: 0.868
UCAAGCCCUGCUUCUCAGCUAGUGAGCAUCAGCCCAAAGUCAGAACUCACAGGGGAUUCUCUGCAUUCAUCCCGGGUCUGUCCUCUCUGACUCUGCUACAUACAGGGUCC: 0.318
AUGGGUACAGAACAGUUUUGGAAUGAACAUUGCCAGUGCUACAAUUGCACUAGUGGGGACUGCUUUUCUCUCACUAAAUAUAGCAGUUAAUAUCCAGUCAUUAAGGAGUU: 0.53
AGAAUCAACAGGGCACAAGAUCUAUAUAUAUUUUUAAGAGAAAAUGUAAAUAAAGAAUUUCUAAAAUAGCUUCCAGACUUGUCACUCAGUGGGAGCAUUAGAUUAACACA: 0.527
AGCUUCUUUCCCAGAAUAAACUUAUCAUGCAUUUGCUUACCUAAAAUUUAAGUUUCAAAUUAGUUCUCUAUAUGAGAUACUUAAUCGAGCAUAUAUAUUUAUAUUCAUUG: 0.472

Set 4
Target: Ras GTPase-activating protein-binding protein 1, full length (G3BP1, Homo sapiens, UniProt Q13283)
Chain of UniProt Q13283 (whole entry, looked up): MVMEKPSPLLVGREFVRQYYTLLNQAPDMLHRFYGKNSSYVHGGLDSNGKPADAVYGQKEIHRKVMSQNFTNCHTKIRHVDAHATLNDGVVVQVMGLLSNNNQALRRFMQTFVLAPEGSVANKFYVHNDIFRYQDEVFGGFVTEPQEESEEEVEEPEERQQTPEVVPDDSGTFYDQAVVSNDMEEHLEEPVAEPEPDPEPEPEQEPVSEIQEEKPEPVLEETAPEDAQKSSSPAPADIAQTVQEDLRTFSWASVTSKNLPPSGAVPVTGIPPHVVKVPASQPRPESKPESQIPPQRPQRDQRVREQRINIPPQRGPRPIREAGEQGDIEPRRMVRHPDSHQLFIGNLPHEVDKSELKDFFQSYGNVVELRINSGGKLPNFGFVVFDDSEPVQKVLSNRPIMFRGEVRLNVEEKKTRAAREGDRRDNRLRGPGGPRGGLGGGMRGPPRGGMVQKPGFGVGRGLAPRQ
Technique: RNA Bind-n-Seq
Molecule type: RNA
Medium: in vitro
Tested at: 200 nM
Notes: whole 134-nt RNA, ends assumed
Added: 150 mM KCl
Reference: input library
Reading: higher = stronger binding
Quantity: log2 enrichment
All sequences stand within: GGGAGUUCUACAGUCCGACGAUC … UGGAAUUCUCGGGUGUCAAGG
UCAAGUCCUGUGCUACACAUCGUAUGUACCGAAUCGGGUUUUUGGGUGGGUGGGAAAGUAUUAUGUUACGCCGUUCGGAUCUGCACUUCC: 0.534
CUCAAGUCCUGUGCUACACAUCGUAUGUACCGAAUCGGAGGAAAGGUUUUUGGAAAGUAUUAUGUUACGCCGUUCGGAUCUGCACUUCCA: -0.62
UUUUCAAAAUAAGGAGCUUCCCAGACCUGUGUUAGAAGGGCAGCAGUCAGAGAGGACCCCAAAUAAUCGCCCUGAUGCCCCUAAGGAGAA: -0.43
UGGCCCUGGUGGCAUGCGGGGAGGAAGAGGUGGCCUCAUGGAUCGUGGUGGUCCCGGUGGAAUGUUCAGAGGUGGCCGUGAUGGAGACAG: 0.217
AGAGAAAAGGAACAGUUCCGUAAGCUCUUUAUUGGUGGCUUAAGCUUUGAAACCACAGAAGAAAGUUUGAGGAACUACUACGAACAAUGG: -1.92
GUCCUGUGCUACACAUCGUAUGUACCGAAUCGGGAAAAAGGGAAAAAAAGGGUUUGGGAAAGUAUUAUGUUACGCCGUUCGGAUCUGCAC: -0.498
CCUCAAGUCCUGUGCUACACAUCGUAUGUACCGAAUCGGAGGUGGUUUUUGGAAAGUAUUAUGUUACGCCGUUCGGAUCUGCACUUCCAG: -0.189
AGUCCUGUGCUACACAUCGUAUGUACCGAAUCGGGGUUUGGGGUUUUUGGGGAGGGGAAAGUAUUAUGUUACGCCGUUCGGAUCUGCACU: 0.525
UGGGAGGUGGAUUUUGUUUAUUUUUUUAGCUCAUUUCCAGGGGUGGGAAUUUUUUUUUAAUAUGUCUCAUGAAUAAAGUUGUUUUUGAAA: 0.0833

Set 5
Target: ABI1, truncated, D143A, DHFR fusion (Arabidopsis thaliana)
Technique: DHFR PCA, deep sequencing
Medium: yeast
Notes: methotrexate growth selection, single substitutions
Added: (+)-ABA 0.39 µM
Reference: wild-type fitted maximum
Reading: higher = stronger binding
Quantity: relative binding score
Starting sequence: PYL1, truncated, DHFR fusion (Arabidopsis thaliana); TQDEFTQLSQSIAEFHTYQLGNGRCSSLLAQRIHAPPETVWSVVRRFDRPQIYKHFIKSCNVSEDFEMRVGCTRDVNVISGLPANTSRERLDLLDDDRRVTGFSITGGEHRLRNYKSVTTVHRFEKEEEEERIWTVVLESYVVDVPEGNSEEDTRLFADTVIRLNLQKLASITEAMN
T135A: -3.95%
V100I: 39.7%
G102S: 26.9%
Q51I: -15.2%
E151L: 23.1%
F157I: -12.7%
R99F: 75.4%
F15N: 0.544%
K54G: -1.16%
A13G: 24.4%
N165W: 19.6%
G23Y: 1.46%
T119W: -17.3%
N149L: 24.5%
D144C: -17.7%
